Measured values collected from several papers.
Each line is one published result; not all experiments were run side by side. Values joined by “and” are separate records of one study, mostly repeats; a detail may differ. In brackets after ≈: the same amount, converted by molar mass.
Sequence of UniProt Q5TCX8 (whole entry, looked up): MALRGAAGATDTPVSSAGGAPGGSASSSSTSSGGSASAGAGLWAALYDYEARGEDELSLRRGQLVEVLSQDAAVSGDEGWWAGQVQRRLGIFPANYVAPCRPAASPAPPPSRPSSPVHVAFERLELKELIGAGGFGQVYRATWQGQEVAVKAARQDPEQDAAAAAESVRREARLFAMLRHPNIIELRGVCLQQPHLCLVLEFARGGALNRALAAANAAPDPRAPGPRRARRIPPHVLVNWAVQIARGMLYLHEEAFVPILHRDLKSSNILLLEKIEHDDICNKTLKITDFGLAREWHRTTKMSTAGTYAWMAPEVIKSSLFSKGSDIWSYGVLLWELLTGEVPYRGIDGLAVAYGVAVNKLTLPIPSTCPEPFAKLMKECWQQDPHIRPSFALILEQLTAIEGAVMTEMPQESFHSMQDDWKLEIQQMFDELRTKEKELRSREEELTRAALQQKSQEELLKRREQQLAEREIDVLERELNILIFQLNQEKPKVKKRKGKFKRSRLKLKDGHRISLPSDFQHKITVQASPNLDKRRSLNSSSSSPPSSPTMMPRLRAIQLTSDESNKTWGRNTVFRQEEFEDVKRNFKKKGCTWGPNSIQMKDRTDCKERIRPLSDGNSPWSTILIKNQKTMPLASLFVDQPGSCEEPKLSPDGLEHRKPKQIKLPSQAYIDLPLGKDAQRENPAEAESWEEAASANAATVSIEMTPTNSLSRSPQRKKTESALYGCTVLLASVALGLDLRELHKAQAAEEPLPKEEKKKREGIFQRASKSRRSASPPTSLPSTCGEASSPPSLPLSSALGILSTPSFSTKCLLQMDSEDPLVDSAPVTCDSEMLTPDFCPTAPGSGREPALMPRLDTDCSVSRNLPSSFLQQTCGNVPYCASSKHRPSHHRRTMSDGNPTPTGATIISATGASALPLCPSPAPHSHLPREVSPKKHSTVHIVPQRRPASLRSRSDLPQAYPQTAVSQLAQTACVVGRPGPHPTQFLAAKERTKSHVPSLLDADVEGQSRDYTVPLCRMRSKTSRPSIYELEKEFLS
Sequence of UniProt P50613 (whole entry, looked up): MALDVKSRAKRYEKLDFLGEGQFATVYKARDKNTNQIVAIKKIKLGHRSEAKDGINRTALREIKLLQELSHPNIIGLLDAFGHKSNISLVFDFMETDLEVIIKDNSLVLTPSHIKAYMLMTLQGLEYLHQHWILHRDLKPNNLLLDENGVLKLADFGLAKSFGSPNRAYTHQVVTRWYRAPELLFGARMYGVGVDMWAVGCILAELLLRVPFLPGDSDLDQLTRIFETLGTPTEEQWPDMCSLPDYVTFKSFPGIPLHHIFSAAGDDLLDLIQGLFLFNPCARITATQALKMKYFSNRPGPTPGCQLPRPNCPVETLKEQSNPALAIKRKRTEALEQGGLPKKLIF
Sequence of UniProt Q86UE8 (whole entry, looked up): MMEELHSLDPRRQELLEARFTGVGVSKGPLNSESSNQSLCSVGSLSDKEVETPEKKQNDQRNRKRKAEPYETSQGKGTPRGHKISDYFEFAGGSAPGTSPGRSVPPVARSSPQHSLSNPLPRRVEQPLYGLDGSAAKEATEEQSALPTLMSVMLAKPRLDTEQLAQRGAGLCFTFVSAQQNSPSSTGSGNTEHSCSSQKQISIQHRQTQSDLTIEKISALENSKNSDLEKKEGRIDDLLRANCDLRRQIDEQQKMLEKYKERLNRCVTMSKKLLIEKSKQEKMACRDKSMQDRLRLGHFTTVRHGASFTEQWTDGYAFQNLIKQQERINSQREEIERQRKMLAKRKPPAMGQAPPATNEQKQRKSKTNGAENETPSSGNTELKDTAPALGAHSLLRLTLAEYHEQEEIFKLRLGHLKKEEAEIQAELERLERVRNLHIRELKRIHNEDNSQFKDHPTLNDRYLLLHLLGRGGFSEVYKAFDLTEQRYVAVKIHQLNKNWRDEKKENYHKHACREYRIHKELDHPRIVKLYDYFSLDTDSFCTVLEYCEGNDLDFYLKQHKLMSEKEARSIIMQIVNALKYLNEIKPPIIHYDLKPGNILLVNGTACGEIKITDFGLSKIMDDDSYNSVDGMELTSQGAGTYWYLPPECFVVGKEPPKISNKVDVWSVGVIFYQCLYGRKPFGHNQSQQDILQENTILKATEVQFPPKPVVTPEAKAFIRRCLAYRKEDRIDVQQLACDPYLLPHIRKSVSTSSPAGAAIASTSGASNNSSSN
Sequence of UniProt Q16816 (whole entry, looked up): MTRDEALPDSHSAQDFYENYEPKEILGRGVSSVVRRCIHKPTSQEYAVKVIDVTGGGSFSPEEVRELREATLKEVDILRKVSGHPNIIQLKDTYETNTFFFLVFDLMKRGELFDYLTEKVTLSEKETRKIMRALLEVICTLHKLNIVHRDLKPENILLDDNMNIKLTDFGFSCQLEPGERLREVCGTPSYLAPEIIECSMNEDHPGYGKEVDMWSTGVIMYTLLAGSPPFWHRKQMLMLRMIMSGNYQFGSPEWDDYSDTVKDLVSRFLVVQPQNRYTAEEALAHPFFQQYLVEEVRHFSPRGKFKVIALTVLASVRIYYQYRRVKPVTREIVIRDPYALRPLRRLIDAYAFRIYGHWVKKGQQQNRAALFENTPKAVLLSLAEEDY

Cc1cc(C(F)(F)F)c(C#N)c(SCC(=O)c2ccccc2)n1  EC50 (Trypanosoma brucei; parasite growth, resazurin; RHODESIENSE): 25.9 µM
O=C(Nc1ccc(Oc2ccc3nc(NC(=O)c4ccccc4)[nH]c3c2)cc1)Nc1cc(C(F)(F)F)ccc1F  EC50 (Trypanosoma brucei; parasite growth): 0.794 µM
Fc1ccc(Nc2c(-c3ccccn3)nc3cccc(F)n23)cc1  IC50 (Leishmania infantum; parasite growth; intracellular, amastigote): 8.64 µM
Cc1cc(C)nc(SCC(=O)c2cccs2)n1  EC50 (Trypanosoma brucei; parasite growth, resazurin): > 64 µM
CC1(C)CC[C@]2(NC(=O)N3CCCNCC3)CC[C@]3(C)C(=CC[C@@H]4[C@@]5(C)CC[C@@H]6OC(C)(C)OC[C@@]6(C)[C@@H]5CC[C@]43C)[C@@H]2C1  inhibition (Leishmania mexicana; parasite growth, resazurin; 50 µM, amastigote): 95.9%
COc1cc([C@H]2OC[C@H]3[C@@H]2CO[C@@H]3c2cc(OC)c(O)c(OC)c2)cc(OC)c1O  inhibition (Helicobacter pylori; microbial growth, broth dilution; 15.63 µg/mL): 100%
COc1cccc(-n2ncc3c(N/N=C/c4ccncc4)ncnc32)c1  EC50 (Trypanosoma brucei; parasite growth): 0.398 µM
CC1(C)CC[C@]2(NC(=O)O)CC[C@]3(C)C(=CC[C@@H]4[C@@]5(C)CC[C@@H]6O[C@H](C[C@H]7O[C@H](CO)[C@@H](O)[C@H](O)[C@@H]7O)OC[C@@]6(C)[C@@H]5CC[C@]43C)[C@@H]2C1  inhibition (Leishmania mexicana; parasite growth, resazurin; 50 µM, amastigote): 97%
CCCN1CCCC(c2ccc(Nc3nc(Nc4cc(F)ccc4C(N)=O)c4cc[nH]c4n3)c(OC)c2)C1 (stereo not drawn)  EC50 (Trypanosoma brucei; parasite growth): 0.1 µM
Cc1[nH]c(C(=O)Nc2ccc(C(=O)NCC(=O)O)cc2N2CCNCC2)c(Cl)c1Cl.Cl  MIC (Acinetobacter baumannii; microbial growth, broth dilution; ATCC19606): > 32 µg/mL
COC(=O)[C@H](Cc1c[nH]cn1)NC(=O)N[C@]12CCC(C)(C)C[C@H]1C1=CC[C@@H]3[C@@]4(C)CC[C@@H]5OC(C)(C)OC[C@@]5(C)[C@@H]4CC[C@@]3(C)[C@]1(C)CC2  inhibition (Leishmania mexicana; parasite growth, resazurin; 50 µM, amastigote): 98%
O=C(O)c1ccc(O)cc1  inhibition (Helicobacter pylori; microbial growth, broth dilution; 1.95 µg/mL): 100%
Cc1ccc2nc(-c3ccccc3)c(CNc3cccc(C(F)(F)F)c3)n2c1  EC50 (Leishmania infantum; parasite growth; intracellular, amastigote): 31.6 µM
Cc1cc([C@@H](C)Nc2ccccc2C(=O)O)c2nc(N3CCC(F)(F)CC3)c(C#N)c(=O)n2c1  remaining binding (CDK7 (Homo sapiens, UniProt P50613); binding, competition with immobilised ligand; 1 µM): 82%
CNc1ccnc(SCC(=O)c2ccccc2)c1C#N  EC50 (Trypanosoma brucei; parasite growth, resazurin; RHODESIENSE): > 64 µM
CCS(=O)(=O)Oc1ccc(C=NNC(=O)CSc2nc3ccc(Cl)cc3c(=O)n2-c2ccccc2)cc1  inhibition zone (Salmonella enterica; microbial growth, well diffusion; TYPHIMURIUM; 20 µg/mL): 3 mm
CC(C)[C@H](N)C(=O)N[C@H](Cc1ccccc1)C(=O)N[C@@H](Cc1ccccc1)C(=O)N[C@H](CCCN)C(=O)N[C@H](C(=O)N[C@H](CCCNC(=N)N)C(=O)O)[C@@H](C)O  IC90 (Balamuthia mandrillaris; parasite growth, ATP luminescence): > 20 µM
CN(Cc1ccc(C(C)(C)C)cc1)Cc1cccc2ccccc12  inhibition zone (Trichophyton mentagrophytes; microbial growth, disc diffusion; ATCC18748; 0.064 µg/mL, 72 h): ≥ 55 mm
COc1ccc2nc(-c3ccccn3)c(N(C)c3ccc(F)cc3)n2c1  IC50 (Leishmania infantum; parasite growth; intracellular, amastigote): 0.59 µM and 1.29 µM
Cc1cc(C)c(C#N)c(SCC(=O)c2ccncc2)n1  EC50 (Trypanosoma brucei; parasite growth, resazurin; RHODESIENSE): > 64 µM
CC1(C)S[C@@H]2[C@H](NC(=O)[C@H](N)c3ccccc3)C(=O)N2[C@H]1C(=O)O  MIC90 (Streptococcus viridans; microbial growth; clinical isolate): 2 µg/mL (≈ 5.72 µM)
CC(C)[C@@H]1NC(=O)[C@@H](CCCNC(=N)N)NC(=O)[C@H]([C@@H](C)O)NC(=O)[C@@H](CCCN)NC(=O)[C@H](C)NC(=O)[C@@H](Cc2ccccc2)NC1=O  IC50 (Balamuthia mandrillaris; parasite growth, ATP luminescence; 72 h): > 20 µM
O=C(O[C@@H]1O[C@@H]2COC(=O)c3cc(O)c(O)c(O)c3-c3c(cc(O)c(O)c3O)C(=O)O[C@H]([C@H]1O)[C@@H]2O)c1cc(O)c(O)c(O)c1  inhibition zone (Streptococcus mutans; microbial growth, disc diffusion; 500 µg/disc): 15 mm
CC1(C)CC[C@]2(C(=O)O)CC[C@]3(C)C(=CC[C@@H]4[C@@]5(C)CC[C@H](OC(=O)CCC(=O)O)[C@@](C)(COC(=O)CCC(=O)O)[C@@H]5CC[C@]43C)[C@@H]2C1  inhibition (Leishmania mexicana; parasite growth, resazurin; 50 µM, amastigote): 96.7%
CC(C)[C@@H]1NC(=O)[C@@H](CCCCN)NC(=O)[C@H]([C@@H](C)O)NC(=O)[C@@H](CCCCN)NC(=O)[C@H](Cc2ccccc2)NC(=O)[C@@H](Cc2ccccc2)NC1=O  IC50 (Balamuthia mandrillaris; parasite growth, ATP luminescence; 72 h): ≤ 5 µM
C=C[C@]1(C)C[C@@H](OC(=O)CS[C@@H]2C[C@H]3CC[C@@H](C2)N3C)[C@]2(C)[C@H](C)CC[C@]3(CCC(=O)[C@H]32)[C@@H](C)[C@@H]1O  MIC90 (Streptococcus viridans; microbial growth; clinical isolate): 0.0312 µg/mL (≈ 0.0604 µM)
C=CC(=O)N1CCC(COCC(=O)N2CCN(c3nc(-c4cnc(N)nc4C(F)F)nc(N4CCOC[C@@H]4C)n3)CC2)CC1  remaining binding (PHKG1 (Homo sapiens, UniProt Q16816); binding, competition with immobilised ligand; 1 µM): 92%
CCCN1CCC(Oc2cc(Nc3nc(Nc4cccc(F)c4C(N)=O)c4cc[nH]c4n3)c(OC)cc2Cl)CC1  EC50 (Trypanosoma brucei; parasite growth): 0.316 µM
COc1cccc(-c2nc3ccccn3c2Nc2ccc(F)cc2)n1  IC50 (Leishmania infantum; parasite growth; intracellular, amastigote): > 64 µM
Cc1[nH]c(C(=O)Nc2ccc(C(=O)NCC(=O)O)cc2N2CC[C@H](N)C2)c(Cl)c1Cl.Cl  MIC (Klebsiella aerogenes; microbial growth, broth dilution; ATCC13408): > 32 µg/mL
CN1CCN(C(=O)[C@@H]2CCCN2C(=O)N[C@]23CCC(C)(C)C[C@H]2C2=CC[C@@H]4[C@@]5(C)CC[C@@H]6OC(C)(C)OC[C@@]6(C)[C@@H]5CC[C@@]4(C)[C@]2(C)CC3)CC1  inhibition (Leishmania mexicana; parasite growth, resazurin; 50 µM, amastigote): 97.9%
CC(C)[C@@H]1NC(=O)[C@@H](CCCNC(=N)N)NC(=O)[C@H]([C@@H](C)O)NC(=O)[C@@H](CCCN)NC(=O)[C@H](Cc2ccccc2)NC(=O)[C@@H](Cc2ccc(O)cc2)NC1=O  IC90 (Balamuthia mandrillaris; parasite growth, ATP luminescence): > 20 µM
CC1(C)CC[C@]2(C(=O)O)CC[C@]3(C)C(=CC[C@@H]4[C@@]5(C)CC[C@@H]6O[C@H]([C@H](O)[C@@H](O)[C@@H](O)CO)OC[C@@]6(C)[C@@H]5CC[C@]43C)[C@@H]2C1  inhibition (Leishmania mexicana; parasite growth, resazurin; 50 µM, amastigote): 100%
Cn1nnc(-c2cccnc2SCC(=O)c2ccc(F)cc2)n1  EC50 (Leishmania infantum; parasite growth; mouse Macrophage; intracellular, amastigote): > 64 µM
Nc1nccc(-c2c(-c3ccc(F)cc3)ncn2C2CCC(O)CC2)n1 (stereo not drawn)  EC50 (Trypanosoma brucei; parasite growth): 1.26 µM
CC1(C)CC[C@]2(C(=O)O)CC[C@]3(C)C(=CC[C@@H]4[C@@]5(C)CC[C@@H]6O[C@H](C[C@H]7O[C@H](CO)[C@@H](O)[C@H](O)[C@H]7O)OC[C@@]6(C)[C@@H]5CC[C@]43C)[C@@H]2C1  inhibition (Leishmania mexicana; parasite growth, resazurin; 50 µM, amastigote): 96.3%
COc1cc(-c2cncc3c2CN(C)Cc2cc(N4CCNCC4)ccc2-3)cc(OC)c1OC  remaining activity (TLK2 (Homo sapiens, UniProt Q86UE8); enzyme activity, inhibitor; 1 µM): 104%
O=C(Nc1n[nH]c2nc(-c3ccc(O)cc3)c(Br)cc12)C1CC1  EC50 (Trypanosoma brucei; parasite growth): 0.398 µM
C=C/C=C(\C)CC[C@H]1C[C@@H](O)CC(=O)O1  MIC (Salmonella enterica; microbial growth, broth dilution; ATCC14028 TYPHIMURIUM): 128 µg/mL (≈ 609 µM)
COc1ccc(-c2nc3ccc(OC)cn3c2N(C)c2ccc(F)cc2)nc1  IC50 (Leishmania infantum; parasite growth; intracellular, amastigote): 0.79 µM
COc1ccc(-c2cc(=O)c3c(O)cc(O[C@@H]4O[C@H](CO)[C@@H](O)[C@H](O)[C@H]4O)cc3o2)cc1O  inhibition (Helicobacter pylori; microbial growth, broth dilution; 1.95 µg/mL): 100%
CN(Cc1ccc(C2(C(F)(F)F)CC2)cc1)Cc1cccc2ccccc12  inhibition zone (Trichophyton mentagrophytes; microbial growth, disc diffusion; ATCC18748; 0.016 µg/mL, 72 h): 34 mm
COC(=O)c1ccc(O)cc1  inhibition (Helicobacter pylori; microbial growth, broth dilution; 31.25 µg/mL): 100%
CNc1ncc2c(/C=C/C(=O)N3CCC(OC)CC3)nn(Cc3cccc(C(F)(F)F)c3)c2n1  remaining activity (MAP3K21 (Homo sapiens, UniProt Q5TCX8); enzyme activity, inhibitor, radiometric; 1 µM): 109%
COc1ccn2c(Nc3ccccc3F)c(-c3ccncn3)nc2c1  EC50 (Leishmania infantum; parasite growth; intracellular, amastigote): 10 µM
Cc1cc(C)c(C#N)c(NCC(O)c2ccc(F)cc2)n1 (stereo not drawn)  EC50 (Trypanosoma brucei; parasite growth, resazurin): 7.72 µM
C=C[C@@]1(C)C=C2CC[C@@H]3[C@](C)(CCC[C@@]3(C)C(=O)O)[C@H]2CC1  inhibition (Helicobacter pylori; microbial growth, broth dilution; 7.81 µg/mL): 71%
Cc1ccc2nc(-c3ccccc3)c(CNc3ccc(F)cc3)n2c1  EC50 (Leishmania infantum; parasite growth; intracellular, amastigote): > 63.1 µM
CCc1ccc(C(=O)CSc2nc(C)cc(C)c2C#N)cc1  EC50 (Trypanosoma brucei; parasite growth, resazurin; RHODESIENSE): 55.1 µM
CC(C)[C@@H]1NC(=O)[C@@H](Cc2c[nH]c3ccccc23)NC(=O)[C@H]([C@@H](C)O)NC(=O)[C@@H](CCCCN)NC(=O)[C@H](Cc2ccccc2)NC(=O)[C@@H](Cc2ccccc2)NC1=O  IC90 (Balamuthia mandrillaris; parasite growth, ATP luminescence): > 20 µM
COc1cc(-c2cc(=O)c3c(O)cc(O)cc3o2)ccc1O  inhibition (Helicobacter pylori; microbial growth, broth dilution; 125 µg/mL): 100%
Cc1cc(C)c(C#N)c(NCC(=O)c2ccc(F)cc2)n1  EC50 (Trypanosoma brucei; parasite growth, resazurin; RHODESIENSE): 48.5 µM
O=c1cc(-c2ccc(O)c(O)c2)oc2cc(O)cc(O)c12  inhibition (Helicobacter pylori; microbial growth, broth dilution; 62.5 µg/mL): 100%
CCCOC(=O)[C@]12CCC(C)(C)C[C@H]1C1=CC[C@@H]3[C@@]4(C)CC[C@H](O)[C@@](C)(CO)[C@@H]4CC[C@@]3(C)[C@]1(C)CC2  inhibition (Leishmania mexicana; parasite growth, resazurin; 50 µM, amastigote): 100%

Some of these lines once more:
O=C(O[C@@H]1O[C@@H]2COC(=O)c3cc(O)c(O)c(O)c3-c3c(cc(O)c(O)c3O)C(=O)O[C@H]([C@H]1O)[C@@H]2O)c1cc(O)c(O)c(O)c1  inhibition zone (Streptococcus mutans; microbial growth, disc diffusion; 500 µg/disc): 15 mm
O=C(Nc1n[nH]c2nc(-c3ccc(O)cc3)c(Br)cc12)C1CC1  EC50 (Trypanosoma brucei; parasite growth): 0.398 µM
CC1(C)CC[C@]2(C(=O)O)CC[C@]3(C)C(=CC[C@@H]4[C@@]5(C)CC[C@@H]6O[C@H]([C@H](O)[C@@H](O)[C@@H](O)CO)OC[C@@]6(C)[C@@H]5CC[C@]43C)[C@@H]2C1  inhibition (Leishmania mexicana; parasite growth, resazurin; 50 µM, amastigote): 100%
CC1(C)CC[C@]2(NC(=O)O)CC[C@]3(C)C(=CC[C@@H]4[C@@]5(C)CC[C@@H]6O[C@H](C[C@H]7O[C@H](CO)[C@@H](O)[C@H](O)[C@@H]7O)OC[C@@]6(C)[C@@H]5CC[C@]43C)[C@@H]2C1  inhibition (Leishmania mexicana; parasite growth, resazurin; 50 µM, amastigote): 97%
CC(C)[C@H](N)C(=O)N[C@H](Cc1ccccc1)C(=O)N[C@@H](Cc1ccccc1)C(=O)N[C@H](CCCN)C(=O)N[C@H](C(=O)N[C@H](CCCNC(=N)N)C(=O)O)[C@@H](C)O  IC90 (Balamuthia mandrillaris; parasite growth, ATP luminescence): > 20 µM
CNc1ccnc(SCC(=O)c2ccccc2)c1C#N  EC50 (Trypanosoma brucei; parasite growth, resazurin; RHODESIENSE): > 64 µM
Cc1cc(C)c(C#N)c(NCC(O)c2ccc(F)cc2)n1 (stereo not drawn)  EC50 (Trypanosoma brucei; parasite growth, resazurin): 7.72 µM
Cn1nnc(-c2cccnc2SCC(=O)c2ccc(F)cc2)n1  EC50 (Leishmania infantum; parasite growth; mouse Macrophage; intracellular, amastigote): > 64 µM
